Measured values collected from several papers.
± marks the error that the study gave.
prp N63Q: Ribosomal processing cysteine protease Prp (prp, Staphylococcus aureus, UniProt Q2FXS9, N63Q)
F2: Prothrombin (F2, Homo sapiens, UniProt P00734)
Chain of UniProt Q96PF2 (whole entry, looked up): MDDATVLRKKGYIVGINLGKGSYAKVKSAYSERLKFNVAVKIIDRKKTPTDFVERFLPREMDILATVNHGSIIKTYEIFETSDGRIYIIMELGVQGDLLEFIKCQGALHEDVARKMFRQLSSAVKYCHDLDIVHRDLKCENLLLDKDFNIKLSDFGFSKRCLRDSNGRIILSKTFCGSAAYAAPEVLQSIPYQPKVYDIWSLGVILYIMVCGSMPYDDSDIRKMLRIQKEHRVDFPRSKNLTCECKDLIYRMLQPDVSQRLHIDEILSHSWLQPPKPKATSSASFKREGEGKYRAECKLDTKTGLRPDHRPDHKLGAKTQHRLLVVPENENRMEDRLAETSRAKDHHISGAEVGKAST
Chain of UniProt P21802 (whole entry, looked up): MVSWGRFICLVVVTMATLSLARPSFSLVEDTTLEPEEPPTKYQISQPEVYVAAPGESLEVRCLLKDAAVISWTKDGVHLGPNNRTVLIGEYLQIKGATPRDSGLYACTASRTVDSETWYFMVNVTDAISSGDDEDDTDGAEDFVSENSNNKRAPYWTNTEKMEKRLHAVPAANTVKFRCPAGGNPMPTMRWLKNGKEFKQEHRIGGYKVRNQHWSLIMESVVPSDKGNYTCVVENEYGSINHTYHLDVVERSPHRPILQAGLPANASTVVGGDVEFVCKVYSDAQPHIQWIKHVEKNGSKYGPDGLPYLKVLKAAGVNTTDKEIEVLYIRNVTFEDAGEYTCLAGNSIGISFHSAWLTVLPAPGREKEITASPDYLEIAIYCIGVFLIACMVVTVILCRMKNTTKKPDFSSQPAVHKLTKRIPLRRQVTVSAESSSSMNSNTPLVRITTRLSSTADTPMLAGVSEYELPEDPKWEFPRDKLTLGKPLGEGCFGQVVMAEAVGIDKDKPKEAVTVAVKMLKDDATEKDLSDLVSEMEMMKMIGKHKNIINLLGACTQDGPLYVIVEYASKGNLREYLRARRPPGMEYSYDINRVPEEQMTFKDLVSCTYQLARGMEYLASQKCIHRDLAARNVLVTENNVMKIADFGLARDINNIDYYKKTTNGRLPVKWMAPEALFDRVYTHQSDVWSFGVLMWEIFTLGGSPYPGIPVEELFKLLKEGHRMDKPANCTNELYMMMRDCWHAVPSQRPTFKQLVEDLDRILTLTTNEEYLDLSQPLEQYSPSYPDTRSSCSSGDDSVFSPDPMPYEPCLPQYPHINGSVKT
Chain of UniProt P00811 (whole entry, looked up): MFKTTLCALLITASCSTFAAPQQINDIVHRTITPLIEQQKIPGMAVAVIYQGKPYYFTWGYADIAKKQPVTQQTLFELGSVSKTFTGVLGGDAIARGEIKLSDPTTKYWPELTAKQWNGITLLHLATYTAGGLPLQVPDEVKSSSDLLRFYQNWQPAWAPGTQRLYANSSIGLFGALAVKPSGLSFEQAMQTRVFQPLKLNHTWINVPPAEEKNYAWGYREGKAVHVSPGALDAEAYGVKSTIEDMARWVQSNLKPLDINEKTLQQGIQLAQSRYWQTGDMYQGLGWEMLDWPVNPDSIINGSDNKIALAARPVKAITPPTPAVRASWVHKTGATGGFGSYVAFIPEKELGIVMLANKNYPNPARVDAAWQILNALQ
Chain of UniProt P25100 (whole entry, looked up): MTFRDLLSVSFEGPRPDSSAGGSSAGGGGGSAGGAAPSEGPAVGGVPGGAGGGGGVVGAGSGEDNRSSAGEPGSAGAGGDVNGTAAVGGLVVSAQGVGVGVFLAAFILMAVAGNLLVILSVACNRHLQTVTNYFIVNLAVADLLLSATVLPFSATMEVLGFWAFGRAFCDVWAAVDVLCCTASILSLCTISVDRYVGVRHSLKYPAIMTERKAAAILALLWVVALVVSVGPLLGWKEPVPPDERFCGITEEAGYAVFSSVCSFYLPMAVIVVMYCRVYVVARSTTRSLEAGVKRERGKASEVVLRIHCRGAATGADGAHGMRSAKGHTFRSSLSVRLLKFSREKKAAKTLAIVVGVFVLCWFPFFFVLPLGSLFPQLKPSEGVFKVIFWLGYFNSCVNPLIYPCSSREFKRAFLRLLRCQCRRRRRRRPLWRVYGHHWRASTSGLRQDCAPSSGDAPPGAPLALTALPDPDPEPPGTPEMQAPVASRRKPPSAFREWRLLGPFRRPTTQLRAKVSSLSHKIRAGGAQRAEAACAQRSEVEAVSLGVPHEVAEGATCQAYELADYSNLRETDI
Chain of UniProt P05067 (whole entry, looked up): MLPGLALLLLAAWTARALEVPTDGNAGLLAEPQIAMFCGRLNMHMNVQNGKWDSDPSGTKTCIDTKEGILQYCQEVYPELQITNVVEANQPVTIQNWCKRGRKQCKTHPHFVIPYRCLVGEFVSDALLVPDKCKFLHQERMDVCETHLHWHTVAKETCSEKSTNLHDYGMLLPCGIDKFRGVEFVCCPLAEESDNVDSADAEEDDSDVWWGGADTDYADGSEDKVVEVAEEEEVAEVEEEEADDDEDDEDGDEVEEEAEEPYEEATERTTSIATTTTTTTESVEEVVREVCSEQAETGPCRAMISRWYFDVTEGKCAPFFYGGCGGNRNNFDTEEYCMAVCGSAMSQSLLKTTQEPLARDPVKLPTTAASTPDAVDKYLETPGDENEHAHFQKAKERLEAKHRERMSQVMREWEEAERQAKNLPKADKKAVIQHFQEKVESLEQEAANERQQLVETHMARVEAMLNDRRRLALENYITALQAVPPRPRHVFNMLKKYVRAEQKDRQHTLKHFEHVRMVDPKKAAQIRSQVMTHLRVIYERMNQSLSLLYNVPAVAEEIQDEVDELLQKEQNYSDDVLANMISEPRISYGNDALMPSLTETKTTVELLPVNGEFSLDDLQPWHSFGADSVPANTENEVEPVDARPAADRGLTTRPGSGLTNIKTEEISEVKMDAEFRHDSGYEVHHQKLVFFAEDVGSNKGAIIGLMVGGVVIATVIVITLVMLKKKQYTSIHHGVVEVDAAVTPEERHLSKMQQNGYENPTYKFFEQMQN
Chain of UniProt Q09013 (whole entry, looked up): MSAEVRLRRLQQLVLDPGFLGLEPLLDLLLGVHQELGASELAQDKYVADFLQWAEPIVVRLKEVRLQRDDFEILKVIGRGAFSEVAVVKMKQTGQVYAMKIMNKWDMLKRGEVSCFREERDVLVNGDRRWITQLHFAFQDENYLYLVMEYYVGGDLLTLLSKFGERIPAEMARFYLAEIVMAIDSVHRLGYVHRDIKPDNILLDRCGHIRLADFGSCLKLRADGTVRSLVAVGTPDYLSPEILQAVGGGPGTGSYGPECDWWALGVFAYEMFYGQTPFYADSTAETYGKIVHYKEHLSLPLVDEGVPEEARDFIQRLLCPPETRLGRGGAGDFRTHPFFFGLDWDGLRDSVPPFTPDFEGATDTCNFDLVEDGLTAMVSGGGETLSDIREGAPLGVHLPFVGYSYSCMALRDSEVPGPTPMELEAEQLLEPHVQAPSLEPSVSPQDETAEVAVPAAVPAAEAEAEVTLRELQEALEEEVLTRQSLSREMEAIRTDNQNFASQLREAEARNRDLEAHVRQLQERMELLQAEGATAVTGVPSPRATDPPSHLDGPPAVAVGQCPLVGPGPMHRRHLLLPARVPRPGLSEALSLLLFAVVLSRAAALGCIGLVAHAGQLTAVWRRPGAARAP
Chain of UniProt Q0VDG4 (whole entry, looked up): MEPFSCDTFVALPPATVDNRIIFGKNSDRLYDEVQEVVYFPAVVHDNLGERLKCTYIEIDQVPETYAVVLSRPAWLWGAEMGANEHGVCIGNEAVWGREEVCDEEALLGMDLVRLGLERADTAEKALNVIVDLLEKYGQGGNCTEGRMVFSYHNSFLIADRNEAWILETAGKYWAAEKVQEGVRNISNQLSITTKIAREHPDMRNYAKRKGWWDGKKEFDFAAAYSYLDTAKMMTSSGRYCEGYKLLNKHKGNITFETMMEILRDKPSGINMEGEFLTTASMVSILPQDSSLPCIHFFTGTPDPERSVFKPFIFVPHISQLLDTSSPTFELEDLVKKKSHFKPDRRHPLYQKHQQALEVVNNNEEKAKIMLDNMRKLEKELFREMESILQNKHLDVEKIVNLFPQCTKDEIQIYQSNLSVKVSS
Chain of UniProt Q9QYN8 (whole entry, looked up): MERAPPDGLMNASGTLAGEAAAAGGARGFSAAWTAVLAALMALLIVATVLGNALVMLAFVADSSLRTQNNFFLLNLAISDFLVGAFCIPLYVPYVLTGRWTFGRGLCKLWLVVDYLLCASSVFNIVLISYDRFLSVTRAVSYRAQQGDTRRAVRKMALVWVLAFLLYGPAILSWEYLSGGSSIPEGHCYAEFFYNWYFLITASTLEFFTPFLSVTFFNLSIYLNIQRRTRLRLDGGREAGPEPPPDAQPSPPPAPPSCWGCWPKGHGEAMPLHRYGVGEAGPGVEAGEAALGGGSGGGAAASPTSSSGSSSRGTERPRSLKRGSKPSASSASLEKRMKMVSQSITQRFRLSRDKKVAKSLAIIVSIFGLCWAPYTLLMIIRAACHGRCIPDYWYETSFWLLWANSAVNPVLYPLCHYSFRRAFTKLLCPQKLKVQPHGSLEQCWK
Chain of UniProt P37288 (whole entry, looked up): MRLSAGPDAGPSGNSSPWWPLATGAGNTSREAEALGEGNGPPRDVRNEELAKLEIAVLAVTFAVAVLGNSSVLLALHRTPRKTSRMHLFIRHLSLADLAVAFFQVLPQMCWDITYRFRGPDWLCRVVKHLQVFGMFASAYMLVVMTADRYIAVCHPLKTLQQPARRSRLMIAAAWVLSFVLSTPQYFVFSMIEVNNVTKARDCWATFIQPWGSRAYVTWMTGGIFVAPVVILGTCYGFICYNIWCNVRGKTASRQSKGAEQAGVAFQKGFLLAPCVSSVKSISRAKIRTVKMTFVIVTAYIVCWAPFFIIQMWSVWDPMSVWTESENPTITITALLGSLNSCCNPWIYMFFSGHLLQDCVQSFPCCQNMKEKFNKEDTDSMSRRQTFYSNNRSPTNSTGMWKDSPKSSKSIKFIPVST

SMILES | target | test | system | conditions | inhibition
O=[N+]([O-])c1ccc(O)c(Cc2cc([N+](=O)[O-])ccc2O)c1 | hexokinase and G6P dehydrogenase | NADPH formation rate |  | up to 25 µM, added: ATP | no inhibition
COCc1c(-c2cc3cc(C)cc(OC)c3s2)c2c(N)ncnn2c1CN1CCNC(=O)C1 | GABA transporter | radioligand binding |  | 10 µM | 28%
CCCC[C@@H](C=O)NC(=O)[C@H](CC(C)C)NC(=O)OCc1ccccc1 | prp N63Q | enzyme activity, inhibitor |  | 10 µM, prp 21.4 nM, added: FITC peptide substrate 0.5 µM | -8.54 ± 6.6%
CC(C(=O)Nc1ccc2c(c1)B(O)OC2)c1cccc(Oc2ccccc2)c1 (centres unmarked) | F2 | enzyme activity |  | 50 µM, added: substrate 50 µM | ≤ 10%
C=CCc1ccc(O)c(-c2cc(CC=C)ccc2O)c1 | CES1 (Homo sapiens, UniProt P23141) | intracellular hydrolysis, inhibitor, bioluminescence imaging | renal cells | 20 µM | inhibited
C[C@@H](N)Cc1c[nH]cn1 | Hrh3 (Rattus norvegicus, UniProt Q9QYN8) | binding |  | 1 × 10 µM | 87.5%
CC(=O)NC[C@H]1[C@H](O)[C@H](O)[C@@H]2[C@H](O)C[C@@H](CO)N21 | human placental β-N-acetylglucosaminidase |  |  | 0.00644 µM, run 1, added: p-nitrophenyl GlcNAc | 61.6%
O=C(Nc1cccc(C(=O)Nc2ccc3c(c2)B(O)OC3)c1)c1ccccc1 | F2 | enzyme activity |  | 50 µM, added: substrate 50 µM | ≤ 10%
Cn1cccc1-c1cccnc1 | ADRA1D (Homo sapiens, UniProt P25100) | binding |  | 50 µM | -6.92%
CC(NC(=O)[C@H](Cc1ccccc1)NC(=O)OCc1ccccc1)C(=O)CF (some centres unmarked) | prp N63Q | enzyme activity |  | 10 µM, 21.4 nM enzyme dimer, added: 0.5 µM FITC-labelled peptide substrate | -16 ± 4.1%
CCCCCn1c2ccccc2c2cc(C(=O)NCC3CCN(CC(=O)NC(C)(C)C)CC3)ccc21 | CACNA1G (Homo sapiens, UniProt O43497) | calcium current, blocker, whole-cell voltage clamp |  | 3 µM | 44.5 ± 7%
CC[C@H](C)[C@H](NC(=O)[C@@H](NC(=O)[C@H](N)Cc1ccccc1)C(C)C)C(=O)N[C@@H](C)C(N)=O | APP (Homo sapiens, UniProt P05067) | amyloid-beta aggregation, thioflavin T fluorescence |  | 2.0 µM, 120 h, added: 2 µM amyloid-beta | 82.2%
O=C(Nc1ccc2c(c1)B(O)OC2)c1ccccc1OCc1ccccc1 | F2 | enzyme activity |  | 50 µM, added: substrate 50 µM | ≤ 10%
CC[C@H](C)[C@H](NC(=O)[C@H]([C@@H](C)CC)N(C)C(C)=O)C(=O)N[C@H](C(=O)N[C@@H](CC(C)C)C(=O)[C@@]1(C)CO1)[C@@H](C)O | prp N63Q | enzyme activity |  | 10 µM, 21.4 nM enzyme dimer, added: 0.5 µM FITC-labelled peptide substrate | 38.5 ± 7.3%
CN(C(=O)n1cnc(-c2ccc[n+]([O-])c2)c1)C1CCCCC1 | AVPR1A (Homo sapiens, UniProt P37288) | radioligand binding |  | 10 µM | -5%
COc1cc(Nc2ncc(F)c(Nc3ccc4c(n3)NC(=O)C(C)(C)O4)n2)cc(OC)c1OC | TRPM6 (Homo sapiens, UniProt Q9BX84) | KINOMEscan |  | 10 µM | 0%
CC(C)(C)NC(=O)N[C@H](C(=O)N1C[C@H]2[C@@H]([C@H]1C(=O)NC(CC1CCC1)C(=O)C(N)=O)C2(C)C)C(C)(C)C (some centres unmarked) | prp N63Q | enzyme activity, inhibitor |  | 10 µM, prp 21.4 nM, added: FITC peptide substrate 0.5 µM | -11.6 ± 6.6%
Cn1cc(-c2cccc(N3CCc4c(sc5c4CC(C)(C)C5)C3=O)c2CO)cc(Nc2ccncn2)c1=O | RPS6KA2 (Homo sapiens, UniProt Q15349) | kinase activity, inhibitor, SelectScreen kinase profiling |  | 1 µM, added: ATP at apparent Km | 3%

SMILES | target | test | system | conditions | inhibition
O=c1ccc2ccc(OCCCCN3CCN(c4cccc5sccc45)CC3)cc2[nH]1 | prp N63Q | enzyme activity, inhibitor |  | 10 µM, prp 21.4 nM, added: FITC peptide substrate 0.5 µM | 0.5 ± 4.8%
C[C@@H]1N=C(c2ccccc2F)c2cc(Br)ccc2-n2cnc(C(=O)O)c21 | GABA-A receptor GABA site | binding |  | 10 µM | 42.4 ± 11.6%
O=C(Nc1ccc2c(c1)B(O)OC2)c1ccc(OCc2ccc(Cl)cc2)cc1 | F2 | enzyme activity |  | 50 µM, added: substrate 50 µM | ≤ 10%
Clc1ccc2[nH]c3c(NCCCN4CCOCC4)ncnc3c2c1 | Beta-lactamase (ampC, Escherichia coli K-12, UniProt P00811) | enzyme activity, inhibitor |  | 100 µM, added: CENTA substrate | 0%
CC(C(O)c1ccc(O)cc1)N1CCC(Cc2ccccc2)CC1 (centres unmarked) | Glutamate receptor ionotropic, NMDA 2B, with GluN1 (Grin2b, Rattus norvegicus, UniProt Q00960) |  | HEK293 | 10 µM | 88%
O=C(Nc1ccc2c(c1)B(O)OC2)c1ccc(OCc2ccccc2)cc1 | F2 | enzyme activity |  | 50 µM, added: substrate 50 µM | ≤ 10%
CC(C)(C)C#Cc1cc(N(C(=O)[C@H]2CC[C@H](C)CC2)[C@H]2CC[C@H](O)CC2)c(C(=O)O)s1 | prp N63Q | enzyme activity, inhibitor |  | 10 µM, prp 21.4 nM, added: FITC peptide substrate 0.5 µM | 37.8 ± 28.1%
CN1CCN(c2cc(-c3ccncc3)c(-c3ccc4ccccc4c3)nn2)CC1 | ADRA1B (Homo sapiens, UniProt P35368) | antagonist, FLIPR |  | 10 µM | 15.9%
O=C(Nc1cnccc1Cl)N1CCN(Cc2ccc3c(c2)OC(F)(F)O3)CC1 | DMPK (Homo sapiens, UniProt Q09013) | kinase activity, inhibitor |  | 10 µM, added: Axltide substrate | 1%
COc1ccc2c(O[C@@H]3C[C@H]4C(=O)N[C@]5(C(=O)NS(=O)(=O)C6CC6)C[C@H]5/C=C\CCCCN(C)C(=O)[C@@H]4C3)cc(-c3nc(C(C)C)cs3)nc2c1C | prp N63Q | enzyme activity, inhibitor |  | 10 µM, prp 21.4 nM, added: FITC peptide substrate 0.5 µM | 21.3 ± 14.9%
CN(CCN1CCC(OC(=O)Nc2ccccc2-c2ccccc2)CC1)C(=O)c1ccc(CN2CCC(C(N)=O)CC2)cc1 | tyrosine hydroxylase | enzyme activity |  | 1 µM | -10%
FC(F)(F)c1cccc(Nc2nc(NCCOc3ccccc3)nc3[nH]cnc23)c1 | CSNK1D (Homo sapiens, UniProt P48730) | Z'-LYTE or Adapta |  | 5 µM | 9%
O=C(Nc1cccnn1)N1CCC(=Cc2cccc(Oc3ccc(C(F)(F)F)cn3)c2)CC1 | TSSK2 (Homo sapiens, UniProt Q96PF2) | kinase activity, inhibitor |  | 10 µM, human, added: CHKtide | -8%
Cc1cc(N2CCN([C@@H]3CN[C@H](C(=O)N4CCSC4)C3)CC2)n(-c2ccccc2)n1 | prp N63Q | enzyme activity, inhibitor |  | 10 µM, prp 21.4 nM, added: FITC peptide substrate 0.5 µM | -17 ± 3.9%
O=c1ccc2ccccc2o1 | voltage-gated sodium channel site 2 | radioligand binding, antagonist |  | 10 µM | -1.86%
NNCCc1c[nH]c2ccccc12 | Secernin-3 (Homo sapiens, UniProt Q0VDG4) | probe labelling, competitive ABPP-SILAC | HEK-293T cell lysate | 1 µM, 30 min, 25 °C | ~50%
COc1ccc(N2C(=O)N(c3c(C)cccc3Cl)Cc3cnc(Nc4ccc(C5CCN(C)CC5)cc4OC)nc32)nc1 | FGFR2 (Homo sapiens, UniProt P21802) | kinase activity |  | 0.5 µM | 88%

Repeated from above:
SMILES | target | test | system | conditions | inhibition
O=[N+]([O-])c1ccc(O)c(Cc2cc([N+](=O)[O-])ccc2O)c1 | hexokinase and G6P dehydrogenase | NADPH formation rate |  | up to 25 µM, added: ATP | no inhibition
CN1CCN(c2cc(-c3ccncc3)c(-c3ccc4ccccc4c3)nn2)CC1 | ADRA1B (Homo sapiens, UniProt P35368) | antagonist, FLIPR |  | 10 µM | 15.9%
